Experimental data gathered from unrelated publications.
Lines come from different studies, so protocols differ. Numbers after ± are the reported error.

| Structure (SMILES) | system | conditions | scale | quantity | result |
| --- | --- | --- | --- | --- | --- |
| CCCC[C@H](NC(=O)CCCCCCCNC(=O)c1ccc(NN)nc1)C(=O)N[C@H]1CC(=O)NCCCC[C@@H](C(N)=O)NC(=O)[C@H](Cc2c[nH]c3ccccc23)NC(=O)[C@H](CCCNC(=N)N)NC(=O)[C@@H](Cc2ccccc2)NC(=O)[C@H](Cc2c[nH]cn2)NC1=O [technetium-99m labelled] | C57 mouse, B16/F1 melanoma, kidneys | intravenous, 0.5 h | – | uptake | 19.6 ± 7.36 %ID/g |
| N=C(N)NCCC[C@@H]1NC(=O)[C@H](CCCCNC(=O)CCOCCOCCOCCOCCNC(=O)CN2CCN(CC(=O)O)CCN(CC(=O)O)CCN(CC(=O)O)CC2)NC(=O)[C@@H](Cc2ccccc2)NC(=O)[C@H](CC(=O)O)NC(=O)CNC1=O [indium-111 labelled] | athymic nude mice, female, U-87 MG glioma xenograft, tumour and blood | intravenous, 0.5 h | reference: tumour over blood | tumour to tissue ratio | 0.52 ± 0.1 |
| N=C(N)NCCC[C@@H]1NC(=O)[C@H](CCCCNC(=O)CCc2cn(CCC[C@@H]3O[C@H](COC(=O)NCCNC(=O)CN4CCN(CC(=O)O)CCN(CC(=O)O)CCN(CC(=O)O)CC4)[C@@H](O)[C@H](O)[C@H]3O)nn2)NC(=O)[C@@H](Cc2ccccc2)NC(=O)[C@H](CC(=O)O)NC(=O)CNC1=O [gallium-68 labelled] | rodent plasma | 37 °C | – | plasma half-life | > 120 min |
| CCCC[C@@H](NC(=O)[C@H](Cc1c[nH]c2ccccc12)NC(=O)[C@@H](N)CSC1CC(=O)N(CCCCCC(=O)NN=C(CO)[C@]2(O)Cc3c(O)c4c(c(O)c3[C@@H](O[C@H]3C[C@H](N)[C@H](O)[C@H](C)O3)C2)C(=O)c2c(OC)cccc2C4=O)C1=O)C(=O)N[C@@H](CCC(=O)O)C(=O)N[C@@H](C)C(=O)N[C@@H](C)C(=O)N[C@@H](Cc1ccc(O)cc1)C(=O)N[C@@H](CCC(N)=O)C(=O)N[C@H](CCCNC(=N)N)C(=O)N[C@@H](Cc1ccccc1)C(=O)N[C@@H](CC(C)C)C(N)=O (stereo partly shown) | 25% human serum | 100 µM, 37 °C | – | half-life | 0.25 days |
| CSCC[C@H](NC(=O)[C@H](CC(C)C)NC(=O)[C@H](Cc1c[nH]cn1)NC(=O)CNC(=O)[C@@H](NC(=O)[C@H](C)NC(=O)[C@H](Cc1c[nH]c2ccccc12)NC(=O)[C@H](CCC(N)=O)NC(=O)CCCCCNC(=O)CNC(=O)CNC(=O)CNC(=O)CSC(C)=O)C(C)C)C(N)=O [technetium-99m labelled] | Swiss mouse, bone | intravenous, 18.5 MBq, 30 min | – | tissue uptake | 0.13 ± 0.01 %ID/g |
| N=C(N)NCCC[C@@H]1NC(=O)[C@H](CCCCNC(=O)CCOCCOCCOCCOCCNC(=O)CC[C@H](NC(=O)CCOCCOCCOCCOCCNC(=O)CC[C@H](NC(=O)CN2CCN(CC(=O)O)CCN(CC(=O)O)CCN(CC(=O)O)CC2)C(=O)NCCOCCOCCOCCOCCC(=O)N[C@@H](CCC(=O)NCCOCCOCCOCCOCCC(=O)NCCCC[C@@H]2NC(=O)[C@@H](Cc3ccccc3)NC(=O)[C@H](CC(=O)O)NC(=O)CNC(=O)[C@H](CCCNC(=N)N)NC2=O)C(=O)NCCOCCOCCOCCOCCC(=O)NCCCC[C@@H]2NC(=O)[C@@H](Cc3ccccc3)NC(=O)[C@H](CC(=O)O)NC(=O)CNC(=O)[C@H](CCCNC(=N)N)NC2=O)C(=O)NCCOCCOCCOCCOCCC(=O)NCCCC[C@@H]2NC(=O)[C@@H](Cc3ccccc3)NC(=O)[C@H](CC(=O)O)NC(=O)CNC(=O)[C@H](CCCNC(=N)N)NC2=O)NC(=O)[C@@H](Cc2ccccc2)NC(=O)[C@H](CC(=O)O)NC(=O)CNC1=O [indium-111 labelled] | athymic nude mice, female, U-87 MG glioma xenograft, tumour and liver | intravenous, 72 h | reference: tumour over liver | tumour to tissue ratio | 2.6 ± 0.8 |
| CCCC[C@H](NC(=O)CNC(=O)[C@H](CO)NC(=O)CNC(=O)c1ccc(NN)nc1)C(=O)N[C@H]1CC(=O)NCCCC[C@@H](C(N)=O)NC(=O)[C@H](Cc2c[nH]c3ccccc23)NC(=O)[C@H](CCCNC(=N)N)NC(=O)[C@@H](Cc2ccccc2)NC(=O)[C@H](Cc2c[nH]cn2)NC1=O [technetium-99m labelled] | C57 mouse, B16/F1 melanoma | 2 h | reference: tumour over muscle | uptake ratio | 147 |
| CC(C)C[C@@H]1NC(=O)[C@H](C(C)C)NC(=O)[C@H](CO)NC(=O)CNC(=O)CNC(=O)[C@H](CCCNC(=N)N)NC(=O)[C@@H]2CCCN2C(=O)[C@@H](NC(=O)CC[C@H](NC(=O)c2ccc(N(C)Cc3cnc4nc(N)nc(N)c4n3)cc2)C(=O)O)C(C)(C)SSC[C@@H](C(=O)O)NC(=O)CNC(=O)[C@H]([C@@H](C)O)NC(=O)[C@H](C(C)C)NC1=O | acetate buffer | 100 µM, pH 5.0, 70 °C | – | half-life | 22.2 days |
| N=C(N)NCCC[C@@H]1NC(=O)[C@H](CCCCNC(=O)CC[C@H](NC(=O)CCOCCOCCOCCOCCNC(=O)CN2CCN(CC(=O)O)CCN(CC(=O)O)CCN(CC(=O)O)CC2)C(=O)NCCCC[C@@H]2NC(=O)[C@@H](Cc3ccccc3)NC(=O)[C@H](CC(=O)O)NC(=O)CNC(=O)[C@H](CCCNC(=N)N)NC2=O)NC(=O)[C@@H](Cc2ccccc2)NC(=O)[C@H](CC(=O)O)NC(=O)CNC1=O [indium-111 labelled] | athymic nude mice, female, U-87 MG glioma xenograft, tumour and blood | intravenous, 72 h | reference: tumour over blood | tumour to tissue ratio | 53.2 ± 6.41 |
| C[C@@H](O)[C@H](NC(=O)[C@@H]1CSSC[C@H](NC(=O)[C@@H](Cc2ccccc2)NC(=O)CN2CCCN3CCN(CCCN(CP(=O)(O)O)CC3)CC2)C(=O)N[C@@H](Cc2ccc(O)cc2)C(=O)N[C@H](Cc2c[nH]c3ccccc23)C(=O)N[C@@H](CCCCN)C(=O)N[C@@H]([C@@H](C)O)C(=O)N1)C(=O)O [copper-64 labelled] | male Lewis rat, AR-42J tumour-bearing | dose not given, 24 h | reference: 1 h activity | reduction of lung activity | 76% |
| N=C(N)NCCC[C@@H]1NC(=O)[C@H](CC(=O)O)NC(=O)[C@@H](Cc2ccccc2)NC(=O)[C@H](CCCCNC(=O)CCOCCOCCOCCOCCNC(=O)CC[C@H](NC(=O)CCOCCOCCOCCOCCNC(=O)CC[C@H](NC(=O)CN2CCN(CC(=O)O)CCN(CC(=O)O)CCN(CC(=O)O)CC2)C(=O)NCCOCCOCCOCCOCCC(=O)N[C@@H](CCC(=O)NCCOCCOCCOCCOCCC(=O)NCCCC[C@@H]2NC(=O)CNC(=O)[C@H](CCCNC(=N)N)NC(=O)[C@H](CC(=O)O)NC(=O)[C@@H](Cc3ccccc3)NC2=O)C(=O)NCCOCCOCCOCCOCCC(=O)NCCCC[C@@H]2NC(=O)CNC(=O)[C@H](CCCNC(=N)N)NC(=O)[C@H](CC(=O)O)NC(=O)[C@@H](Cc3ccccc3)NC2=O)C(=O)NCCOCCOCCOCCOCCC(=O)NCCCC[C@@H]2NC(=O)CNC(=O)[C@H](CCCNC(=N)N)NC(=O)[C@H](CC(=O)O)NC(=O)[C@@H](Cc3ccccc3)NC2=O)NC(=O)CNC1=O [indium-111 labelled] | octanol/water | – | – | log P | -3.61 ± 0.07 |
| CCCC[C@H](NC(=O)CNC(=O)CNC(=O)CNC(=O)c1ccc(NN)nc1)C(=O)N[C@H]1CC(=O)NCCCC[C@@H](C(N)=O)NC(=O)[C@H](Cc2c[nH]c3ccccc23)NC(=O)[C@H](CCCNC(=N)N)NC(=O)[C@@H](Cc2ccccc2)NC(=O)[C@H](Cc2c[nH]cn2)NC1=O [technetium-99m labelled] | C57 mouse, B16/F1 melanoma | 2 h | reference: tumour over skin | uptake ratio | 31.8 |
| N=C(N)NCCC[C@@H]1NC(=O)[C@H](CCCCNC(=O)CC[C@H](NC(=O)CCOCCOCCOCCOCCNC(=O)CC[C@H](NC(=O)CN2CCN(CC(=O)O)CCN(CC(=O)O)CCN(CC(=O)O)CC2)C(=O)NCCOCCOCCOCCOCCC(=O)N[C@@H](CCC(=O)NCCCC[C@@H]2NC(=O)[C@@H](Cc3ccccc3)NC(=O)[C@H](CC(=O)O)NC(=O)CNC(=O)[C@H](CCCNC(=N)N)NC2=O)C(=O)NCCCC[C@@H]2NC(=O)[C@@H](Cc3ccccc3)NC(=O)[C@H](CC(=O)O)NC(=O)CNC(=O)[C@H](CCCNC(=N)N)NC2=O)C(=O)NCCCC[C@@H]2NC(=O)[C@@H](Cc3ccccc3)NC(=O)[C@H](CC(=O)O)NC(=O)CNC(=O)[C@H](CCCNC(=N)N)NC2=O)NC(=O)[C@@H](Cc2ccccc2)NC(=O)[C@H](CC(=O)O)NC(=O)CNC1=O [indium-111 labelled] | athymic nude mice, female, U-87 MG glioma xenograft, tumour and muscle | intravenous, 0.5 h | reference: tumour over muscle | tumour to tissue ratio | 13.9 ± 6.43 |
| CC(C)C[C@H](NC(=O)[C@@H]1CCCN1C(=O)[C@H](CCCCN)NC(=O)[C@@H](N)CO)C(=O)N1CCC[C@H]1C(=O)N[C@@H](CCC(=O)O)C(=O)N[C@H](C(=O)N[C@H](C(=O)N[C@@H](CC(=O)O)C(=O)N[C@@H](CCC(=O)O)C(=O)N[C@@H](Cc1ccc(O)cc1)C(=O)N[C@@H](Cc1cn(CCOCCOCCOCCNC(=O)CCc2ccc(O)c(CN(CCN(CC(=O)O)Cc3cc(CCC(=O)NCCCC[C@H](NC(=O)N[C@@H](CCC(=O)O)C(=O)O)C(=O)O)ccc3O)CC(=O)O)c2)nn1)C(=O)O)[C@@H](C)O)C(C)C [gallium-68 labelled] | NMRI nu/nu mice, LNCaP tumour, testes | 10 MBq, high molar activity | – | standardized uptake value | 0.18 g/g |
| CC(C)C[C@H](NC(=O)C[C@H](O)[C@H](CC(C)C)NC(=O)[C@H](Cc1c[nH]cn1)NC(=O)CNC(=O)[C@@H](NC(=O)[C@H](C)NC(=O)[C@H](Cc1c[nH]c2ccccc12)NC(=O)[C@H](CCC(N)=O)NC(=O)[C@@H](Cc1ccccc1)NC(=O)c1ccc(NC(=O)CNC(=O)CCC(C(=O)O)N2CCN(CC(=O)O)CCN(CC(=O)O)CC2)cc1)C(C)C)C(N)=O (stereo partly shown) [copper-64 labelled] | mouse serum | 1 h, 37 °C | – | intact probe | > 90% |
| CCCC[C@H](NC(=O)CNC(=O)CNC(=O)c1ccc(NN)nc1)C(=O)N[C@H]1CC(=O)NCCCC[C@@H](C(N)=O)NC(=O)[C@H](Cc2c[nH]c3ccccc23)NC(=O)[C@H](CCCNC(=N)N)NC(=O)[C@@H](Cc2ccccc2)NC(=O)[C@H](Cc2c[nH]cn2)NC1=O [technetium-99m labelled] | C57 mouse, B16/F1 melanoma | 2 h, with: NDP-MSH blockade | reference: tumour over skin | uptake ratio | 1.32 |
